Literature values that unrelated publications cite.
± gives the spread as reported.
B1: Skp2 1–88; sequence looked up; chain MHRKHLQEIPDLSSNVATSFTWGWDSSKTSELLSGMGVSALEKEEPDSENIPQELLSNLGHPESPPRKRLKSKGSDKDFVIVRRPKLN

| Substance | target | test | test system | conditions | IC50 [nM] |
| --- | --- | --- | --- | --- | --- |
| CC1(C)CCC(C)(C)c2cc(NC(=O)c3ccc(C(=O)O)cc3)ccc21 | CYP26A1 | enzyme activity, inhibitor |  | together with: 9-cis-retinoic acid | 12000 ± 3980 |
| Oc1cccc(-c2nc(N3CCOCC3)c3oc4ncccc4c3n2)c1 | ATM | kinase activity, inhibitor |  | together with: 10 µM ATP | 920 |
| CC1(C)CCC(C)(C)c2cc(C3(c4ccc(C(=O)O)cc4)OCCO3)ccc21 | CYP26A1 | enzyme activity, inhibitor |  | together with: 9-cis-retinoic acid | 3300 |
| CC1(C)[C@@H](OC(=O)CCC(=O)O)CC[C@]2(C)[C@H]3C(=O)C=C4[C@@H]5C[C@@](C)(C(=O)O)CC[C@]5(C)CC[C@@]4(C)[C@]3(C)CC[C@@H]12 | gap junction channels | gap junction current | human fibroblasts |  | 3000 |
| OC[C@H]1O[C@H](n2cc(-c3ccccc3)nn2)[C@@H](O)[C@@H](O)[C@@H]1O | FimH | binding, competitive binding |  |  | 250 |
| O=C(Nc1ccccc1-c1ccc(F)c(F)c1)c1nccnc1C(F)(F)F | succinate dehydrogenase, Sclerotinia sclerotiorum | enzyme activity, inhibitor |  | median of 24 strains | 1.8 |
| CCCCOc1c2cc(C(=O)Nc3cc(C(=O)O)cc(C(=O)NC4CCCCC4)c3)cc1Cc1cc(C(=O)Nc3cc(C(=O)O)cc(C(=O)NC4CCCCC4)c3)cc(c1OCCCC)Cc1cc(C(=O)Nc3cc(C(=O)O)cc(C(=O)NC4CCCCC4)c3)cc(c1OCCCC)Cc1cc(C(=O)Nc3cc(C(=O)O)cc(C(=O)NC4CCCCC4)c3)cc(c1OCCCC)C2 | VEGF | growth factor activity |  |  | > 10000 |
| YSCPHR | ACE | enzyme activity, inhibitor | peptide |  | 312000 |
| CC(C)C[C@H](NC(=O)[C@@H](CC(=O)NO)Cc1ccccc1)C(=O)O | neurolysin | inhibitor |  | range reported for several peptidases | 30 to 60 |
| O=c1cc(-c2ccc(O)c(-c3c(O)cc(O)c4c(=O)cc(-c5ccc(O)cc5)oc34)c2)oc2cc(O)cc(O)c12 | amyloid beta 1-40 | fibrillization |  |  | ~5000 |
| COc1ccc(S(=O)(=O)N(CCO)c2ccccc2CN(C)CC=Cc2ccc(Cl)cc2)cc1 | CaMKII | inhibitor |  |  | > 2000 |
| Cc1ccc([N+](=O)[O-])cc1S(=O)(=O)N(C)/N=C/c1cnc2ccc(Br)cn12 | PI4KIIα | enzyme activity, inhibitor |  | together with: 10 µM ATP | > 100000 |
| CC(=O)OC[C@H]1O[C@@H]([S-])[C@H](OC(C)=O)[C@@H](OC(C)=O)[C@@H]1OC(C)=O.CCP(CC)CC.[Au+] | thioredoxin reductase | enzyme activity, inhibitor |  |  | 20 |
| COc1ccc2c(c1OC)N=C(NC(=O)c1cccnc1)N1CCN=C21 | mTORC1 | enzyme activity, inhibitor |  | together with: 10 µM ATP | 1050 |
| CC(C)[C@@H]1NC(=O)C(C)(C)NC(=O)c2csc(n2)CNC(=O)C[C@@H](/C=C/CCS)OC1=O | HDAC10 | enzyme activity, inhibitor, cell-free |  |  | 2.8 |
| CCN(CCO)CCCC(C)Nc1ccnc2cc(Cl)ccc12 (stereo not shown) | IK1 channel | ion current, inhibitor | CHO cells | room temperature | 44200 |
| CN1CC(=O)N2[C@H](c3ccc4c(c3)OCO4)c3[nH]c4ccccc4c3C[C@@H]2C1=O | PDE7 |  |  |  | > 10000 |
| B1 (Skp2 1–88) | CDK2-cyclin A (human) | Rb phosphorylation, inhibitor |  | together with: Rb | 180 |
| CC(C)C[C@H](CC(=O)NO)C(=O)N[C@H](C(=O)N[C@@H](C)C(=O)NCCN)C(C)(C)C | recombinant ADAM10 | enzyme activity, inhibitor |  |  | 3000 |

| Substance | target | test | test system | conditions | IC50 [nM] |
| --- | --- | --- | --- | --- | --- |
| C[C@@H](NCCN(C)C)[C@@H]1CC[C@@H]2[C@H]3CCc4cc(O)ccc4[C@@H]3CC[C@]21C | CatSper, human | alkalization/depolarization-induced activation, inhibitor | human sperm |  | 1200 |
| [Co+2] | voltage-gated calcium channels | barium current, blocker |  |  | 65000 |
| CNC(=O)[C@@H](NC(=O)[C@H](CCCc1ccccc1)[C@H](C)N(O)C=O)C(C)(C)C | recombinant ADAM10 | enzyme activity, inhibitor |  |  | 5.3 |
| CCCNC(=N)NCCC[C@H](N)C(=O)O | nNOS | nitrergic vasodilation | bovine ciliary artery |  | ~10000 |
| Cc1cc(C(C)Nc2ccccc2)c2oc(-c3ccncc3)cc(=O)c2c1 (stereo not shown) | PI4KIIα | enzyme activity, inhibitor |  | together with: 10 µM ATP | > 100000 |
| Cn1cc(-c2ccc3c(c2)ncn3-c2cc(NS(=O)(=O)C3CC3)cc(-c3ccc(F)cc3F)c2)cn1 | RET kinase | enzyme activity, inhibitor |  |  | < 100 |
| COCC(=O)O[C@]1(CCN(C)CCCc2nc3ccccc3[nH]2)CCc2cc(F)ccc2[C@@H]1C(C)C | T-type calcium channel | inhibitor | HEK293 |  | 10100 |
| CCCC(CCC)C(=O)O | HDAC1 | inhibitor |  |  | 171000 |
| N=C(N)SCCc1ccc(OCc2ccc([N+](=O)[O-])cc2)cc1 | Na+/Ca2+ exchanger reverse mode | inhibitor | hippocampal neurons |  | 5700 ± 2100 |
| COc1ccc([C@H](CC(=O)O)N2CCN(CCCc3ccc4c(n3)NCCC4)C2=O)cn1 | integrin αvβ3, human | ligand binding, inhibitor | purified receptor |  | 0.08 |
| CC(C)[C@H]1C(=O)N[C@@H](CCCNC(=N)N)C(=O)NCC(=O)N[C@@H](CC(=O)O)C(=O)N[C@H](Cc2ccccc2)C(=O)N1C | integrin αvβ5 | binding, inhibitor |  |  | 120 |
| β-secretase inhibitor IV | BACE1 (human) | amyloid-beta production | HEK293 overexpressing APP NFEV |  | 15 |
| CNC(=O)[C@H](Cc1c[nH]c2ccccc12)NC(=O)[C@@H](CC(=O)NO)CC(C)C | recombinant ADAM10 | enzyme activity, inhibitor |  |  | 8.1 to 110 |
| O=c1c(O)c(-c2ccc(O)cc2)oc2cc(O)cc(O)c12 | trypsin | enzyme activity, inhibitor |  | range of inhibitory concentrations | 50000 to 100000 |
| CS(=O)(=O)Nc1cccc(-c2ccc3c(NC(=O)C4CC4)n[nH]c3c2)c1 | AAK1 | inhibitor |  |  | 220 |
| C[C@H](c1ccc(F)cc1CCCC(=O)O)N(c1cc(F)ccc1F)S(=O)(=O)c1ccc(Cl)cc1 | γ-secretase | inhibitor |  |  | 8 to 300 |
| Cc1cc([C@H](C)Nc2ccccc2)c2oc(N3CCOCC3)cc(=O)c2c1 | PI4KIIα | enzyme activity, inhibitor |  | together with: 10 µM ATP | > 100000 |
| OC(c1cc(C(F)(F)F)nc2c(C(F)(F)F)cccc12)C1CCCCN1 (stereo not shown) | connexin-43 gap junction channel | channel conductance, inhibitor |  |  | 12000 |

Some of these lines once more:
| Substance | target | test | test system | conditions | IC50 [nM] |
| --- | --- | --- | --- | --- | --- |
| CCCC(CCC)C(=O)O | HDAC1 | inhibitor |  |  | 171000 |
| N=C(N)SCCc1ccc(OCc2ccc([N+](=O)[O-])cc2)cc1 | Na+/Ca2+ exchanger reverse mode | inhibitor | hippocampal neurons |  | 5700 ± 2100 |
| COc1ccc([C@H](CC(=O)O)N2CCN(CCCc3ccc4c(n3)NCCC4)C2=O)cn1 | integrin αvβ3, human | ligand binding, inhibitor | purified receptor |  | 0.08 |
